Assay results gathered from unrelated publications.
A part holds a random share of what one study measured. Changes are numbered by the printed parent chain.
Sequence of UniProt Q9Y2X8 (whole entry, looked up): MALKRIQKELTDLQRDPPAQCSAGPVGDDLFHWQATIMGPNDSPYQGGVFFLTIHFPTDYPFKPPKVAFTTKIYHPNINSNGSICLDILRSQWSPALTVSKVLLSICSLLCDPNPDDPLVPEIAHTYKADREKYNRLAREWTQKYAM
Sequence of UniProt Q93WC4 (whole entry, looked up): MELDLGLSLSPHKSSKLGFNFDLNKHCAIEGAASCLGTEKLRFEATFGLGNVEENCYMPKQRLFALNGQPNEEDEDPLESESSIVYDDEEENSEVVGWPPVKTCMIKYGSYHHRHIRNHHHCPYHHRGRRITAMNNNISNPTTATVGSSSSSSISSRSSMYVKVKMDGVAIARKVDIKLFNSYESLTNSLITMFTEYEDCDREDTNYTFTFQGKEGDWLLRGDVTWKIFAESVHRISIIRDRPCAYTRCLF
Sequence of UniProt P68036 (whole entry, looked up): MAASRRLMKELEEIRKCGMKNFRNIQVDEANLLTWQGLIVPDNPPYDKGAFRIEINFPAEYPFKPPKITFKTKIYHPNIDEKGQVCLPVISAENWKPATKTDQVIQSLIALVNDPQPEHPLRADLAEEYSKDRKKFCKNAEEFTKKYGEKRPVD
Sequence of UniProt P62253 (whole entry, looked up): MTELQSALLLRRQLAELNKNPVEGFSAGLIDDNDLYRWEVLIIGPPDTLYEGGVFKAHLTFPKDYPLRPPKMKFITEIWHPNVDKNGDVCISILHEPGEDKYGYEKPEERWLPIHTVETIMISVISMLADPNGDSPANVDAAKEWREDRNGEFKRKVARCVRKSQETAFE
Sequence of UniProt P51668 (whole entry, looked up): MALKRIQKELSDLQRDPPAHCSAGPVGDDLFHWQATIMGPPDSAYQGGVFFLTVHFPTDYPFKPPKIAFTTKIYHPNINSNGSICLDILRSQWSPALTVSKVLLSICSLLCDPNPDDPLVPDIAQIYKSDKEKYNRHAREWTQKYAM
Sequence of UniProt Q9M1R4 (whole entry, looked up): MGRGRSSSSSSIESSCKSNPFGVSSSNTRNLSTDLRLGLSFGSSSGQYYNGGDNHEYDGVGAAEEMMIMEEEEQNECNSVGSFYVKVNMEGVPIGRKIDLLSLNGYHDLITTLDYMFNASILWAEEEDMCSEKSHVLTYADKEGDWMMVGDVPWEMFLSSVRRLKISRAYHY
Sequence of UniProt P62837 (whole entry, looked up): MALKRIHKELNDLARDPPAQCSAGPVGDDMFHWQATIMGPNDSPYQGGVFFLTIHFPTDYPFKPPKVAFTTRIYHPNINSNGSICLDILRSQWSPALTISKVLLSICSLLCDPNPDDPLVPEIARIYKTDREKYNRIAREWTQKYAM
Sequence of UniProt Q84WU6 (whole entry, looked up): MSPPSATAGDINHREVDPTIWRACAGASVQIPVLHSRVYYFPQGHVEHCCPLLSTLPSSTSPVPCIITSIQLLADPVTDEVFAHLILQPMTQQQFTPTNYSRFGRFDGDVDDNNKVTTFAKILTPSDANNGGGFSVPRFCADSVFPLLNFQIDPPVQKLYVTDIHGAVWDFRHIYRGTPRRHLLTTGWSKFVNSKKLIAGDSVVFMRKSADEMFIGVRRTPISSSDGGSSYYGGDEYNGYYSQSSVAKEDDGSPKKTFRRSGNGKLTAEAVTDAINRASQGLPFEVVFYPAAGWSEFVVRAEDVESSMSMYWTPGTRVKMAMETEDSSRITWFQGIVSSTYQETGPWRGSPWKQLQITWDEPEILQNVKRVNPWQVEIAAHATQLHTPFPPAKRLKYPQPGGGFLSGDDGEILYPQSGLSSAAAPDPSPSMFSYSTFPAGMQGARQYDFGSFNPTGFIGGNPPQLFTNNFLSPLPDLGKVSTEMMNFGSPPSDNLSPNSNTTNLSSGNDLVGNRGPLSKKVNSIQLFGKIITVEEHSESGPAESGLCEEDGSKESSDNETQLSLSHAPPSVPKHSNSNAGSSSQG
Sequence of UniProt Q8H174 (whole entry, looked up): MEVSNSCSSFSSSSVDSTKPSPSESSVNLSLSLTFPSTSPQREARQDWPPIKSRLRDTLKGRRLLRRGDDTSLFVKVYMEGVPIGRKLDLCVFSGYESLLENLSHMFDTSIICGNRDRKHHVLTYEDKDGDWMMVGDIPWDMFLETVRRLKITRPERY

Study 1
Molecule: IAA26 (Arabidopsis thaliana, UniProt Q8LAL2)
Sequence of UniProt Q8LAL2 (whole entry, looked up): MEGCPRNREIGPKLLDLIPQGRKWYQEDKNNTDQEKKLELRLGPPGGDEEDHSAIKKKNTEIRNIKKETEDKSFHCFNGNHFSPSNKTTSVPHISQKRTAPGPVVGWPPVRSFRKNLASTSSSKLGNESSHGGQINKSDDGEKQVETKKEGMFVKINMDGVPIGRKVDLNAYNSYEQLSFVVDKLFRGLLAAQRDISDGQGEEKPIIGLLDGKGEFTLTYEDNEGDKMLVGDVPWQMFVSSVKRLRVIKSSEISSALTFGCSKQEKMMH
Method: two-hybrid
Direction: higher = firmer interaction
Endpoint: positive tests
IAA31 (Arabidopsis thaliana, UniProt Q8H174); relative to: out of 2 tests: 0
ARF17 (Arabidopsis thaliana, UniProt Q84WU6); weak activation fusion; relative to: out of 3 tests: 0
IAA30 (Arabidopsis thaliana, UniProt Q9M1R4); weak activation fusion; relative to: out of 3 tests: 2
IAA29 (Arabidopsis thaliana, UniProt Q93WC4); relative to: out of 4 tests: 0

Study 2
Target: PABPC1L2, full length, GST fusion (mouse, UniProt A0ABA7IW68)
Method: RNAcompete
Molecule type: RNA
Sample: in vitro
Concentration: 20 nM
Notes: 7-mer, probes averaged, single round
Relative to: mean of 7-mers
Direction: higher = stronger binding
Endpoint: 7-mer Z-score
Residues (chain): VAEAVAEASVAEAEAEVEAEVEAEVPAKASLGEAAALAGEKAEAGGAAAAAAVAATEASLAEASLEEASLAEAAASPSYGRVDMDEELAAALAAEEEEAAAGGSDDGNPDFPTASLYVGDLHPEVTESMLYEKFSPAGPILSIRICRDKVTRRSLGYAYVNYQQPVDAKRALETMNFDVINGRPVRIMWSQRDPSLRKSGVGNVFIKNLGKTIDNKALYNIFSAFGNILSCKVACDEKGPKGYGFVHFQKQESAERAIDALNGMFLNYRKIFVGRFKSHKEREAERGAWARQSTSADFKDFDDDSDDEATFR
UCACUAG: -0.155
CCCGGGG: -0.351
UAAUGUU: -0.264
AUCAGAG: -0.00833
AGUCUUU: -0.398
GCCAAAC: 0.274
GUUGGGC: -0.108
ACUGGUU: -0.284
CUGGAUC: -0.117
AGAACCA: -0.0772
ACCGUCG: -0.394
CCGUGCG: -0.331
UAAAUGC: 0.302
AGGCGAU: 0.218
GAAAGAA: 1.58
GUCAUGA: -0.0554
UCAGUUU: -0.306
GAGGGUU: 0.0334
UUCGGAG: 0.00798
GGAGACC: -0.0047
ACCUAAU: -0.253
AGAUACU: -0.287
CACCCUA: -0.2
GAACGGU: -0.0047
CCCGUUC: -0.489

Study 3
Molecule: B1 (RNF5 RING domain)
Method: yeast two-hybrid
Sample: yeast
Notes: mostly zero background
Relative to: not given
Direction: higher = stronger interaction
Endpoint: lacZ reporter activity
B1: RNF5 RING domain (UniProt Q99942); chain ERGGAGATFECNICLETAREAVVSVCGHLYCWPCLHQWLETRPERQECPVCKAGISREKVVP
UBE2D2 UBC core domain (UniProt P62837): 0
BIRC6 UBC core domain (UniProt Q9NR09): 0
UBE2G1 UBC core domain (UniProt P62253): 0
UBE2D4 UBC core domain (UniProt Q9Y2X8): 0
UBE2D1 UBC core domain (UniProt P51668): 0
UBE2L3 UBC core domain (UniProt P68036): 0

Study 4
Target: RNA binding protein fox-1 homolog 2, RRM domain, GST-SBP tag (RBFOX2, Homo sapiens, UniProt O43251-10, residues 100-194)
Method: RNA Bind-n-Seq
Molecule type: RNA
Sample: in vitro
Concentration: 365 nM
Notes: natural RNA segment, single round, ends assumed
Relative to: no-protein control
Direction: higher = stronger binding
Endpoint: RBNS enrichment (R)
All sequences stand within: GGGAGUUCUACAGUCCGACGAUC … UGGAAUUCUCGGGUGCCAA
Residues (chain): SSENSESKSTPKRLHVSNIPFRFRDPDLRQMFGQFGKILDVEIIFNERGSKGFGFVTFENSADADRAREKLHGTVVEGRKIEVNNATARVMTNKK
AUUGGUUAGAAAAAAAUAGAUUGUCUAUUGAAAGAAAUUCUCUCUCUGCAGUAGAUUAUAUUUAUCCUAAUCUAUUGAUAUUCUGUUGAUUUGUUUUAAGAGAUAGAACU: 0.446
GAUCUUUGAACUCCUGAGUACAGACUGCGGGUGUGUGCUACCAUGCUUUAUGUGGCCCUGGGUUCAAACACAGCCCUUCAUAUGUAUAUAGCCAAACACUCUACAACUGA: 0.408
UUGAACUUAGAGUGCUGGCUCUGCUAUAUGGUACAACUAAUGCUAGACCUACAGUUUAUGUAUACAGUUGAUUUUGAUGUAUUUAUAAAAGCUUUUUUUUCUAGAUUUGA: 0.581
GGCACAGGGUCCAUCCCGCCAUGGCAACAGCAGCAGGCGGCUGCCGCAGCUUCUCCAGGAACCCCUCAGAUGCAAGGCAACCCCACUAUGGUGCCCCUGCCCCCCGGGGU: 0.215
UCAGAGACCACAGACCACAGUGAUUUUUCUUUUCCCUUGUUUAAUUAGGCAAUACCCUUGUUAAUUGCCCUUUGGCAACUAACUUAACCAUGUGCUUCCCACACAGUACA: 0.544
GAAGACGGGUAGGAAGGAUACUAGGUAGGCAGCGUUGCUGAACAAUCUAAGUUGUGGUUCUUAGCCUGUCCCAGGAACAGCAGCAUGGGAGGCUAGGAACUUAACAGAAA: 0.836
AGAGUAGGAAUGUCGGGGUUUCCAGUUAGAAAACCUUUAUUUUUGGAAACGGAAUAAAAAUCUCUUAGAAACUUUUGCAGAUAAUUUGAUGUUGGGCAAAUAUAUAUAAU: 0.795
AACUCUCUCUGUGAAAAUUUAAAUUGUGUGUGUUCUAUCUUUAGAUCCCCUCCAUUUAUUUGUUUAAUUUGGGUGGUGAUUCUGAAAUGAAUACUCUCUAGGAAAUGUGC: 0.399
GGAGGGGGUCUCCAGACUCCACUGAAGCAGGAAGUCCACUGUUGUAAACUGAGUUUGCUAAAUUGGGUCCCCAGAGGAUACCAUGAGAGUGGGUAGGGCAAAAAGAGCCC: 0.17
GGAAGUCCCUUUUCCUUGGACUGGUAUCUUUUCAACUAUUGUUUUAUCCUGUCUUUGGGGGCAAUGUGUCAAAAGUCCCCUCAGGAAUUUUCAGAGGAAAGAACAUUUUA: 0.347
UUGUUUGUUUAUUAGAUGAAUUAUCCUAUUUCAGUACUUCAGCAAGAGAGAACCUAACUGUAUCUUGAGGUGGUAGUAAAACACAGAGGGCCAGUAACGGGUCGUAAUGA: 0.494
UUUUCAACCAGUAUAUCACUAAAAGUUAUAUCAAAGCUUUAUCAGUUCAAGUUUCUUGCUUUUCAUAAUACUUUUUUCUGAUGCAAUUUUAUAUUUUCAAACAUGGCAAG: 0.616

Study 5
Target: Fragile X messenger ribonucleoprotein 1, C-terminal low-complexity region (Fmr1, Mus musculus, UniProt P35922)
Method: RNA Bind-n-Seq
Molecule type: RNA
Sample: in vitro
Concentration: 200 nM
Notes: whole 134-nt RNA, ends assumed
With: 150 mM LiCl
Relative to: input library
Direction: higher = stronger binding
Endpoint: log2 enrichment
Library: 7-deaza-guanosine replaces G
All sequences stand within: GGGAGUUCUACAGUCCGACGAUC … UGGAAUUCUCGGGUGUCAAGG
ACCAUGCAGGUGGGCAUCUUUGGGAAGUGGGGCAAGGGGGGGAUAGGGAGGAGGGUAACACUUUGGGAACAGGUGGUCCCAGGUCGUUUC: 0.958
AAGUCCUGUGCUACACAUCGUAUGUACCGAAUCGGGAAAAAGGGAAAGGGUUUGGGAAAGUAUUAUGUUACGCCGUUCGGAUCUGCACUU: -2.47
GCAGGAAGUAAAAACAAAUGGAAAUGCUUCGGAUAGUGGCAGGGGUGGGCGUUGCUAAGGAAAGGGUGGGAUGGGAGUGGGUAAAGAGUU: 1.57
AAGUCCUGUGCUACACAUCGUAUGUACCGAAUCGGUUUUGGUUUUGGGGUUUUGGGAAAGUAUUAUGUUACGCCGUUCGGAUCUGCACUU: -1.75
AAGUCCUGUGCUACACAUCGUAUGUACCGAAUCGGGGAGGGGUUUGGGGUUUGGGGAAAGUAUUAUGUUACGCCGUUCGGAUCUGCACUU: -0.937
GCAGGAAGUAAAAACAAAUGGAAAUGCUUCGGAUAGUGGCAGGGGUGGGGGUUGCUAAGGAAAGGGUGGGAUGGAAAUGGGUAAAGAGUU: 1.84
UCUCUCUCUUUCCCUCUAGGGUCACAUCUCCCAGGAAGAUCUCACUUCCCCACAGAAGCUCUUGGCCUGGCCUCCUGCAGUGCCACGCUC: 1.74
CUCAAGUCCUGUGCUACACAUCGUAUGUACCGAAUCGGUGGUGGAAAAAAAGGAAAGUAUUAUGUUACGCCGUUCGGAUCUGCACUUCCA: 0.383
UGGGAGGUGGAGUUUGUUUAUUUUUUUAGCUCAUUUCCAGGGGUGGGAAUUUUUUUUUAAUAUGUGUCAUGAAUAAAGUUGUUUUUGAAA: -0.884
UGGCCCUGGAGGCAUGCGGGGAGGAAGAGGUGGCCUCAUGGAUCGUGGUGGUCCCGGUGGAAUGUUCAGAGGUGGCCGUGGUGGAGACAG: -0.377
CACAGACAAAAAGCACCCACACAGACACAGAGGGAAGGGGUUGGGAUGGGGACAGGGUGCACAGCAGGGCGGGGUAGGACCCCAGCCCCU: 0.236

Study 6
Target: CCNA2, cyclin fold, Cln2 fusion (human)
Method: yeast growth competition, sequencing
Sample: yeast
Notes: strong parent motif
Relative to: not given
Direction: higher = stronger binding
Endpoint: normalised enrichment score
Parent: RB1 docking peptide (human); PKPLKKLRFDIEG
K6G: 1.02
R8I: 1.97
G13S: 1.45
F9T: 0.626
D10I: 0.883
L4W: 1.31
L4D: 1.94
L7K: 1.37
E12D: 0.957
D10H: 1.28
K5T: 0.954
K5H: 1.2
P1I: 1.11
E12C: 2.01
D10V: 0.00111
I11W: 0.683
R8A: 1.02
